Results of several laboratories.
Every numbered part comes from another study and shows a few of its results, in no order.

Series 1 — technique: competition protein-binding microarray; form: double-stranded DNA, one strand shown; medium: in vitro; concentration: 2 µM; with: Cbf1 competitor, 0.05 µM; reading: higher = stronger binding; measurement: fluorescence intensity; shared flanks, not repeated: … GTCTTGATTCGCTTGACGCTGCTG
Target: Phosphate system positive regulatory protein PHO4, full length, GST-tagged (PHO4, Saccharomyces cerevisiae, UniProt P07270, residues 1-312)
Setting: whole 60-bp probe, lowest competitor level
Residues (chain): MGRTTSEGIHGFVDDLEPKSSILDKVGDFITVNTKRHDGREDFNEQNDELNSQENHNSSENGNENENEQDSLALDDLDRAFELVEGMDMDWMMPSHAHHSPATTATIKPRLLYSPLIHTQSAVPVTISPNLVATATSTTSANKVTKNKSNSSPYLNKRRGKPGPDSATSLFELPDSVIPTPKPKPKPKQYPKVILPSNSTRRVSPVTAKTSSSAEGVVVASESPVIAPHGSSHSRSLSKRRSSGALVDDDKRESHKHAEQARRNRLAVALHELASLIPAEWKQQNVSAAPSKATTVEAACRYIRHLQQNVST
Oligonucleotide = GGGCTCACTTTTAGACGCGTGTTCCATCGGCGTTCG; result = 8490 a.u.
Oligonucleotide = TCACGGAAATCTTATCATGTGTCGCCCCATCCAATT; result = 6490 a.u.
Oligonucleotide = TCCTCTCCAATGGACACCGTGACGGAATCAGAAATG; result = 6410 a.u.
Oligonucleotide = CATACCCAACCTTGGTGGGTGGGTGAAGATATTTGT; result = 4150 a.u.
Oligonucleotide = CATACCCAACCTTGGGCAGTGGGTGAAGATATTTGT; result = 3390 a.u.

Series 2 — observed: enzyme activity; action: inhibitor; concentration: 20 µM; setting: primary screen; measurement: inhibition
Target: Replicase polyprotein 1ab, main protease (rep, Severe acute respiratory syndrome coronavirus 2, UniProt P0DTD1)
SMILES = COc1ccc2[nH]c([S@@+]([O-])Cc3ncc(C)c(OC)c3C)nc2c1; result = 99.1%
SMILES = CCOC(=O)c1ccc(N2NC(=O)/C(=C/c3ccc([N+](=O)[O-])o3)C2=O)cc1; result = 70.9%
SMILES = CN[C@H]1C(=O)N[C@@H]2Cc3ccc(cc3)Oc3cc4cc(c3O[C@@H]3O[C@H](C(=O)O)[C@@H](O)[C@H](O)[C@H]3NC(=O)CCCCCCCCC(C)C)Oc3ccc(cc3Cl)[C@@H](O)[C@@H]3NC(=O)[C@H](NC(=O)[C@@H]4NC(=O)[C@@H](NC2=O)c2cc(cc(O)c2Cl)Oc2cc1ccc2O)c1ccc(O)c(c1)-c1c(O[C@H]2O[C@H](CO)[C@@H](O)[C@H](O)[C@@H]2O)cc(O)cc1[C@@H](C(=O)NCCCN(C)C)NC3=O; result = 44.4%
SMILES = COc1cc(O)c2c(c1)C(=O)c1cc(C)cc(O)c1C2=O; result = 76.3%

Series 3 — technique: universal PBM; form: double-stranded DNA, one strand shown; medium: in vitro; concentration: not given; reading: higher = stronger binding; measurement: E-score
Target: Sal-like protein 4, full length isoform B (SALL4, Homo sapiens, UniProt Q9UJQ4-2, residues 1-616)
Setting: 8-mer, flanks averaged, mean of replicates
Oligonucleotide = TCTGAGAA; result = 0.0732
Oligonucleotide = AGTGGGAC; result = -0.0544
Oligonucleotide = ATCTCAAT; result = 0.201
Oligonucleotide = AGCCTTGG; result = -0.121
Oligonucleotide = ACCTAGAC; result = -0.0532
Oligonucleotide = CAGCTCAC; result = -0.112
Oligonucleotide = CCCAACCG; result = -0.311
Oligonucleotide = CCCCCTAA; result = -0.0444

Series 4 — technique: RNA Bind-n-Seq; form: RNA; medium: in vitro; concentration: not given; relative to: input RNA pool; reading: higher = stronger binding; measurement: bound/input enrichment
Target: RING finger protein unkempt homolog, zinc fingers 1-6, GST-SBP tag (UNK, Homo sapiens, UniProt Q9C0B0, residues 30-357)
Setting: RNA with constant flanks, human-mouse chimeric sites, ends assumed
Shared flanks, not repeated: GGGAGUUCUACAGUCCGACGAUC … CAACAGAGGAUUGAGCAUCA
Target sequence (chain): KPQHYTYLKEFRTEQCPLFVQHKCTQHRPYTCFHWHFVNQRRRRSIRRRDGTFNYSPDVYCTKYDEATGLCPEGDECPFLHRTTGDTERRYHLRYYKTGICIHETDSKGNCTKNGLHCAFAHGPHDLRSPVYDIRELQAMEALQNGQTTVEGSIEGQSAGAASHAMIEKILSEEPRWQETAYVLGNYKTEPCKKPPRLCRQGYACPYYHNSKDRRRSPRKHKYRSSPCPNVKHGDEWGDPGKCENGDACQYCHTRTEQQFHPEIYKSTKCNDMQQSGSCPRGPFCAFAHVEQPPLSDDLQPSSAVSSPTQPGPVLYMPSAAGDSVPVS
Oligonucleotide = UAAAUUAGGGCUGCCGUUUUCUGUUUCUCCCUGGGCUGCAGACAGCUAGAAGAUUUUAUCUAGCUUAAACCAGGCUGCUGGUGUUCCCUCUUUUUUUCCACGAGGGUGUUUUUGGCUGCA; result = 0.485 ratio
Oligonucleotide = CUCAGAGAUGUGGCAUAUCAAUAUGUGAAAAAGGGGGCUCGUAUAUUUGUGGAAGGGAAAGUGGACUAUGGCGAGUACAUGGAUAAAAACAAUGUGAGGCGGCAAGCAACAACAAUCAUA; result = 0.353 ratio
Oligonucleotide = UCAGAAGCUGUGCUGGGUCACUUUCCGUAUCCAGAUCCUUCACAGUGGACAGAUGAAGAACUGGGAAUCCCUCCUGAUGACGAGGACUGACACUGUAAACUCUCUGGACGAGUAGGAGCA; result = 0.68 ratio
Oligonucleotide = UUGCCUGAGAACGAGGAUGAGCUGGAGAGCACCAACAGACGCUAUACCAAGAGGGACUGCAGCACUUUCCUCAGAACUAGUGAGACGGGCAUCGUGGACCAGGUCAUGGUCACUCUCAAC; result = 0.23 ratio
Oligonucleotide = AGCGUUCAGGAAUUCAUGACCUUUACAAGUCAACUGAUUGUGGAACGCUCGGGGAAAGGCAGCAGAGCUUCUGUCAAAGAACAAGAGUAUCUUUGCCACGUCUACGUCCGGAGCGACAGU; result = 0.0991 ratio
Oligonucleotide = CUCUUUGAAUCUUUCAAGAGUUUUGAAGGUCUCUUUUAUUUUCUGGGAUCCAUUGUUAACUUUAGUCAGGACCCAGAUGUGCACUUUAAAUAUAUUCAGGCGGCUUGCAAGACUGGGCAA; result = 0.764 ratio
Oligonucleotide = UUUCUACUGCAGCAAACCAUGCUACGAAUUAAGGAUCCUAAGAAGUCCCUGGAUUUUUAUACGAGGGUUCUUGGACUGACCCUCCUGCAGAAGCUUGAUUUUCCCAUUAUGAAGUUCUCG; result = 0.225 ratio

Series 5 — cell line: HEK-293T; observed: pseudovirus infection; organism: VSV pseudotyped with SARS-CoV-2 spike; concentration: 10 µM; time: 16 h; relative to: vehicle-treated; measurement: GFP-positive cells
Compound = CNC1(C)C2CCC(C2)C1(C)C (stereo not shown); result = 82.9%
Compound = N#Cc1ccccc1-c1cc(-c2ccccn2)cn(-c2ccccc2)c1=O; result = 95.6%
Compound = CC(C)n1c(/C=C/C(O)CC(O)CC(=O)O)c(-c2ccc(F)cc2)c2ccccc21 (stereo not shown); result = 111%

Series 6 — action: inhibitor; concentration: 20 µM; measurement: inhibition
Target: Replicase polyprotein 1ab, nsp13 helicase (rep, Severe acute respiratory syndrome coronavirus 2, UniProt P0DTD1)
SMILES = CO/N=C(\C(=O)N[C@@H]1C(=O)N2C(C(=O)O)=C(COC(N)=O)CS[C@H]12)c1ccco1; result = 2.81%
SMILES = CCCCOc1cc(CC2CNC(=O)N2)ccc1OC (stereo not shown); result = 0.28%
SMILES = COc1c(OCCCN2CCOCC2)ccc2c1N=C(NC(=O)c1cnc(N)nc1)N1CCN=C21; result = 7.7%
SMILES = Cc1cccc(C)c1NC(=O)CN1CCCC1=O; result = -3.26%
SMILES = Cc1cc2cc3c(C)cc(=O)oc3c(C)c2o1; result = 1.92%
SMILES = CN(C)c1ccc(C(=O)NCCCCCCC(=O)NO)cc1; result = 7.21%
SMILES = C[C@@H]1NC(=O)[C@@H]2CCCN2C(=O)[C@H](CC(N)=O)NC(=O)[C@@H]2CSSC[C@H](N)C(=O)N[C@H]3CSSC[C@H](NC1=O)C(=O)N[C@@H]([C@@H](C)O)C(=O)NCC(=O)N[C@H](C(=O)N[C@@H](Cc1ccc(O)cc1)C(=O)O)CSSC[C@H](NC(=O)[C@H](Cc1ccc(O)cc1)NC(=O)[C@H](CCC(=O)O)NC3=O)C(=O)N2; result = 28.4%
SMILES = O=C1N=C(O)NC1(c1ccccc1)c1ccccc1; result = -2.31%
SMILES = CO[C@H]1C[C@@H]2CC[C@@H](C)[C@@](O)(O2)C(=O)C(=O)N2CCCC[C@H]2C(=O)O[C@H]([C@H](C)C[C@@H]2CC[C@H](n3cnnn3)[C@H](OC)C2)CC(=O)[C@H](C)/C=C(\C)[C@@H](O)[C@@H](OC)C(=O)[C@H](C)C[C@H](C)/C=C/C=C/C=C/1C; result = 5.28%
SMILES = O=C(c1ccc(F)cc1)C1CCN(CCCCc2ccccc2)CC1; result = 4.85%
SMILES = CN1CCC(=C2c3ccccc3CCc3sccc32)CC1; result = 6.87%
SMILES = CC[C@H](C)[C@H](N)C1=N[C@H](C(=O)N[C@@H](CC(C)C)C(=O)N[C@H](CCC(=O)O)C(=O)N[C@H](C(=O)N[C@H]2CCCCNC(=O)[C@H](CC(N)=O)NC(=O)[C@@H](CC(=O)O)NC(=O)[C@H](Cc3cnc[nH]3)NC(=O)[C@@H](Cc3ccccc3)NC(=O)[C@H]([C@@H](C)CC)NC(=O)[C@@H](CCCN)NC2=O)[C@@H](C)CC)CS1; result = 0.12%
SMILES = C[N+](C)(C)CCCCCCCCCC[N+](C)(C)C; result = -6.14%
SMILES = COc1ccccc1N1CCN(CCCNc2cc(=O)n(C)c(=O)n2C)CC1; result = 2.17%
SMILES = CC(=Nc1ccccc1N)c1c(C)cc(=O)n(O)c1O; result = -2.07%
SMILES = COc1ccc(CN2CCN(C(c3ccc(F)cc3)c3ccc(F)cc3)CC2)c(OC)c1OC; result = 0.79%
SMILES = Cc1cc(OCc2nnc(SC3CCCC3)n2-c2cccnc2)ccc1-c1ccc(S(C)(=O)=O)cc1; result = 5.07%
SMILES = CN(c1nccc(=O)[nH]1)C1CCN(c2nc3ccccc3n2Cc2ccc(F)cc2)CC1; result = 3.38%
SMILES = CNC(=O)[C@H]1O[C@@H](n2cnc3c(NCc4cccc(I)c4)nc(Cl)nc32)[C@H](O)[C@@H]1O; result = 4.28%
SMILES = CC(C)(Oc1ccc(CCNC(=O)c2ccc(Cl)cc2)cc1)C(=O)O; result = 4.48%
SMILES = CC(=O)NCCCOc1ccc(C(=O)N2CCC(N3C(=O)CCc4ccccc43)CC2)cc1; result = -0.58%
SMILES = NC(=O)c1cnc(N[C@@H]2CCCC[C@@H]2N)nc1Nc1cccc(-n2nccn2)c1; result = 3.01%
SMILES = CO[C@@H]1COCC[C@@H]1N[C@@H]1CC[C@@](C(=O)N2CCc3ncc(C(F)(F)F)cc3C2)(C(C)C)C1; result = 7.47%
SMILES = O=C(Nc1ccc(O)cc1)c1ccccc1O; result = -0.82%
SMILES = CC(=O)N(CC(O)CN(C(C)=O)c1c(I)c(C(=O)NC[C@@H](O)CO)c(I)c(C(=O)NC[C@@H](O)CO)c1I)c1c(I)c(C(=O)NC[C@@H](O)CO)c(I)c(C(=O)NC[C@@H](O)CO)c1I; result = 2.14%
